Measured values of several laboratories.
Parts stem from different laboratories: compare values within a part only. Substitutions count along the parent as printed.

Set 1 — method: protein-binding microarray; molecule type: double-stranded DNA, one strand shown; sample: in vitro; concentration: 2200 nM top; setting: 60-bp whole probe; added: salmon DNA 0.4 mg/ml; reference: random background probes; direction: higher = stronger binding; constant ends, left off below: GCCTAGCAC … GTCTTGATTCGCTTGACGCTGCTG
Target: Interferon regulatory factor 7, full length, phosphomimetic (IRF7, Homo sapiens, UniProt Q92985, residues 1-503, S471D/S472D/S475D/S476D/S477D/S483D/S484D/S487D)
Residues (chain): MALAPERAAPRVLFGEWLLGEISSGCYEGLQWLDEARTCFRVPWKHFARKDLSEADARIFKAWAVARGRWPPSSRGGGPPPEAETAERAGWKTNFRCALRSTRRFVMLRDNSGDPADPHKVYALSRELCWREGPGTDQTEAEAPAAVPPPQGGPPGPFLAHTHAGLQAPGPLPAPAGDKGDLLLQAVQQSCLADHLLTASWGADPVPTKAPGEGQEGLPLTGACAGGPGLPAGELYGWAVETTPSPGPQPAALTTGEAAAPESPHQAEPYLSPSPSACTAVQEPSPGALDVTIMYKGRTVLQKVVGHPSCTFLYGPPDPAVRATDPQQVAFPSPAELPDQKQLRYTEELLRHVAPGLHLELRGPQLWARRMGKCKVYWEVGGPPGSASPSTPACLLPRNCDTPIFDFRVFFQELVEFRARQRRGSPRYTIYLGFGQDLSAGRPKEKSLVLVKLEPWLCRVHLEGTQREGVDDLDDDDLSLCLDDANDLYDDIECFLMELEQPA
Oligonucleotide	fitted relative affinity [z-score]
TCGCCTTTTTTGTTGTTTTTGTGCTAG	2.59
GACGGTCTCCTTCGCCTGACGTGCTAG	0.787
CTAGATTTCAGTCTCGATTAGTGCTAG	1.03
TTAGGCCTGCTACTGCTTTAGTGCTAG	-0.248
GACGGTTTAGGTCTCGGGACGTGCTAG	0.544
CCCGATATGCGGTAAGGGCGCGTGCTA	-0.371
TCAGTATTTTTTCTGAAACTGTGCTAG	0.524

Set 2 — target: CCNB1, cyclin fold, Cln2 fusion (human); method: yeast growth competition, sequencing; sample: yeast; setting: weak parent motif; reference: not given; direction: higher = stronger binding
Starting sequence: RB1 docking peptide (human); PKPLKKLRFDIEG
Substitution	normalised enrichment score
PKPLKKLSFDIEG [R8S]	0.419
PKPLKKLRHDIEG [F9H]	0.557
RKPLKKLRFDIEG [P1R]	0.826
PKLLKKLRFDIEG [P3L]	-0.0292

Set 3 — method: RNA Bind-n-Seq; molecule type: RNA; sample: in vitro; concentration: not given; reference: input RNA pool; direction: higher = stronger binding
Target: RING finger protein unkempt homolog, zinc fingers 1-6, GST-SBP tag (UNK, Homo sapiens, UniProt Q9C0B0, residues 30-357)
Setting: RNA with constant flanks, human-mouse chimeric sites, ends assumed
Constant ends, left off below: GGGAGUUCUACAGUCCGACGAUC … CAACAGAGGAUUGAGCAUCA
Residues (chain): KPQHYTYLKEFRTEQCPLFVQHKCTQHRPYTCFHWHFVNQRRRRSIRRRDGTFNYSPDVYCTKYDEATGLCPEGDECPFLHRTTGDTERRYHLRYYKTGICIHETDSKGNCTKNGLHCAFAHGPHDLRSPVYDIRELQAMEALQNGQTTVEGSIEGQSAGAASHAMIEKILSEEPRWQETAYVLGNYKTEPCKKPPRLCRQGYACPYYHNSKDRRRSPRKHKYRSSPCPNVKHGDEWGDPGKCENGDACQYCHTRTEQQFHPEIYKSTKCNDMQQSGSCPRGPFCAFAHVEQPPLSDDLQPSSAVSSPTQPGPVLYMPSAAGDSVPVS
Oligonucleotide	bound/input enrichment [ratio]
AAAGUGAUAACCAUGUUUGUCCAACGACAGGUAUUUUCGGAGAGCAAAGAUGAGAUUGCGUUAGUCCUCUAUGGCACAGAUGGCACUGAUAAUGCCCUUGCUGGCAAGGAUCAGUAUCAG	0.195
CUUAAUGAUAUUUUGAGUGAAUAAAUGAAGCUAAAAUGUCUGCUUUUGGUACAACACGCAUUAGCGAAAGGUUAAGUUUUGUUUUCCACUGAAGUACUAUUUAACAUCUCAGAAAAAAAC	0.216
GUUGCCAGGUUCCGGUGCCGUUGGGCUAGCAAGCUCCCUGAGCUACGUGUCUCUACGCUCUCAAUCCGCCAUCCAACAAACAUGGAUCAGGUAAUGCAGUUUGUGGAGCCCAGCCGGCAG	0.0615
UUGUGCAUAUGAUGCUUAGAUGGUUUUUGCAAAAGCAGAAAUCGCUGCAAGGUAAUCACAAUAGAUAAAAGUGGUAUUUUAAACCUUUGAAAUAAAUGGAUGUAACUGUACCUUGGUACA	0.758
AAAGUGAUGACUAUGUUUGUCCAACGACAGGUAUUUUCGGAGAGCAAGGAUGAGAUUGCGUUAGUCCUCUAUGGCACAGAUGGCACUGAUAAUGCCCUUGCUGGCAAGGACCAGUAUCAG	0.101

Single results of other studies
Substance	target	test	test system	conditions	scale	measurement	result
PhoQ, residues 284 288 289 292 302 303 ASASEQ	PhoP, residues 12 14 15 18 19 AWHSL (Escherichia coli, UniProt P23836)	Sort-seq, refers to: YFP reporter	E. coli	PhoQ-PhoP variant library, added: 10 µM Mg2+	reference: high Mg2+ state, higher = stronger signaling	fold induction	1.69

Some of these lines once more (set 2):
Substitution	normalised enrichment score
RKPLKKLRFDIEG [P1R]	0.826
PKLLKKLRFDIEG [P3L]	-0.0292
